Measurements pooled from the literature.
Parts stem from different laboratories: compare values within a part only.

Set 1 — method: protein binding microarray; molecule type: double-stranded DNA, one strand shown; matrix: in vitro; concentration: not given; reference: not given; direction: higher = stronger binding
Target: Histone acetyltransferase KAT6A, both winged helices, GST fusion (KAT6A, Homo sapiens, UniProt Q92794, residues 1-181)
Setting: 8-mer, flanks averaged, mean of 2 arrays, mostly near background
Construct (chain): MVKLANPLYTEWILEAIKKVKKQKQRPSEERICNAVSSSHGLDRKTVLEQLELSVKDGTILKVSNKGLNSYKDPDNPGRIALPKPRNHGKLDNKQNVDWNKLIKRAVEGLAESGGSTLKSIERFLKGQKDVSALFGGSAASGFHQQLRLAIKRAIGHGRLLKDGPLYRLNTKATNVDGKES
| Sequence | E-score |
| --- | --- |
| GGAGACCA | -0.0657 |
| ATCCGGAC | 0.0512 |
| ACAAGAAG | -0.0973 |
| AGGTTTTA | -0.0144 |

Set 2 — method: universal PBM; molecule type: double-stranded DNA, one strand shown; matrix: in vitro; concentration: 600 nM; direction: higher = stronger binding
Target: Sal-like protein 4, full length isoform A (SALL4, Homo sapiens, UniProt Q9UJQ4, residues 1-1053)
UniProt Q9UJQ4, sequence (whole entry, looked up): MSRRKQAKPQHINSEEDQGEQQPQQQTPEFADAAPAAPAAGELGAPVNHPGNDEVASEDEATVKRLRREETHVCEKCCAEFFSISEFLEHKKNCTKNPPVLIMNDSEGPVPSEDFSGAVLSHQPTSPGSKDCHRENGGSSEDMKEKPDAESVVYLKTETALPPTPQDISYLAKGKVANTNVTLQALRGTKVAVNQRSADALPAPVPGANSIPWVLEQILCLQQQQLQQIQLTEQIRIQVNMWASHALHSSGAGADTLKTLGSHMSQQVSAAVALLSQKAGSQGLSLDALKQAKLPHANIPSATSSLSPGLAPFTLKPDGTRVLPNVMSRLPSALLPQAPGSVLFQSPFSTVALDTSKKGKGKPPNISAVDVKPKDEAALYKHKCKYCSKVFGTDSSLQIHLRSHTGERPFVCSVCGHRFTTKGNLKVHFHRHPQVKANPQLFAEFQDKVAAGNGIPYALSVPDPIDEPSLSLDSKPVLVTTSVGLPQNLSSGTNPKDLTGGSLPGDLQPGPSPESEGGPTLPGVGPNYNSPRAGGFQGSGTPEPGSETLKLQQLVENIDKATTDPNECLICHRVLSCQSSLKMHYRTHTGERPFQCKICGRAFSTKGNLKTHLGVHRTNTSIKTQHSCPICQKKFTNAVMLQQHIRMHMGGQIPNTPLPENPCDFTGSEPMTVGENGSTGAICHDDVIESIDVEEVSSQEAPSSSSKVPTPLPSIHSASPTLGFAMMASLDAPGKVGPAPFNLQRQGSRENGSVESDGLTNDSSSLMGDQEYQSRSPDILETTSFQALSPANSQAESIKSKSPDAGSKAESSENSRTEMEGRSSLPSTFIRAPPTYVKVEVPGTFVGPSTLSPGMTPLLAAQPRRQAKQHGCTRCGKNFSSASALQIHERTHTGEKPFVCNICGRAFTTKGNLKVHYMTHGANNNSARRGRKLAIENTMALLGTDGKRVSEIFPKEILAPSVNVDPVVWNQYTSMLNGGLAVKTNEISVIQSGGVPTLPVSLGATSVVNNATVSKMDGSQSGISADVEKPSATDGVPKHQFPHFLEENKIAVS
Setting: 8-mer, flanks averaged, mean of replicates
| Sequence | E-score |
| --- | --- |
| AGCGCGCA | -0.0644 |
| AGTATCAC | 0.075 |
| CGCGTTTA | 0.162 |
| GCGGCAAA | -0.173 |

Set 3 — method: protein-binding microarray; molecule type: double-stranded DNA, one strand shown; matrix: in vitro; concentration: 0.8 µM; setting: whole 60-bp probe, no competitor; direction: higher = stronger binding
Target: Centromere-binding protein 1, full length, N-terminal tag (CBF1, Saccharomyces cerevisiae, UniProt P17106, residues 1-351)
UniProt P17106, sequence (whole entry, looked up): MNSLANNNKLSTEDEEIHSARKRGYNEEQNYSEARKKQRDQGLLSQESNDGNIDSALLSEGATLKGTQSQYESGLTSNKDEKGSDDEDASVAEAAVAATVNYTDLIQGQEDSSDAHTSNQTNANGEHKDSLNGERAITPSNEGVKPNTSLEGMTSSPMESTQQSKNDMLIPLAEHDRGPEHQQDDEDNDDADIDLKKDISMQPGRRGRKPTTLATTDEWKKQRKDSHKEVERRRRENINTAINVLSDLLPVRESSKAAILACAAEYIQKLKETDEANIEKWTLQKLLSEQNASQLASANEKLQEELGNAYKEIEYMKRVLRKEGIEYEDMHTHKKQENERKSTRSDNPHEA
| Sequence | fluorescence intensity [a.u.] |
| --- | --- |
| CTAATATTTCAACATCATGTTTTGCTTAGTAGATTCGTCTTGATTCGCTTGACGCTGCTG | 551 |
| CTAGTACCTATATACCACCAGAAGTATGTGTCTTTCGTCTTGATTCGCTTGACGCTGCTG | 507 |
| GAAAAATCTTGCTGTGACCCAAACAAGAAAGAGTAGGTCTTGATTCGCTTGACGCTGCTG | 591 |

Single results of other studies
| Molecule | target | assay | system | conditions | how to read | endpoint | value |
| --- | --- | --- | --- | --- | --- | --- | --- |
| PhoQ, residues 284 288 289 292 302 303 NLSRDF | PhoP, residues 12 14 15 18 19 DLLYY (Escherichia coli, UniProt P23836) | Sort-seq, refers to: YFP reporter | E. coli | PhoQ-PhoP variant library, with: 10 µM Mg2+ | reference: high Mg2+ state, higher = stronger signaling | fold induction | 0.931 |

Repeated from above (set 3):
| Sequence | fluorescence intensity [a.u.] |
| --- | --- |
| CTAATATTTCAACATCATGTTTTGCTTAGTAGATTCGTCTTGATTCGCTTGACGCTGCTG | 551 |
| CTAGTACCTATATACCACCAGAAGTATGTGTCTTTCGTCTTGATTCGCTTGACGCTGCTG | 507 |
